# Assay results pooled from the literature.
# ± gives the spread as reported.
# Target: Albumin (ALB, Bos taurus, UniProt P02769)
# UniProt P02769, sequence (whole entry, looked up): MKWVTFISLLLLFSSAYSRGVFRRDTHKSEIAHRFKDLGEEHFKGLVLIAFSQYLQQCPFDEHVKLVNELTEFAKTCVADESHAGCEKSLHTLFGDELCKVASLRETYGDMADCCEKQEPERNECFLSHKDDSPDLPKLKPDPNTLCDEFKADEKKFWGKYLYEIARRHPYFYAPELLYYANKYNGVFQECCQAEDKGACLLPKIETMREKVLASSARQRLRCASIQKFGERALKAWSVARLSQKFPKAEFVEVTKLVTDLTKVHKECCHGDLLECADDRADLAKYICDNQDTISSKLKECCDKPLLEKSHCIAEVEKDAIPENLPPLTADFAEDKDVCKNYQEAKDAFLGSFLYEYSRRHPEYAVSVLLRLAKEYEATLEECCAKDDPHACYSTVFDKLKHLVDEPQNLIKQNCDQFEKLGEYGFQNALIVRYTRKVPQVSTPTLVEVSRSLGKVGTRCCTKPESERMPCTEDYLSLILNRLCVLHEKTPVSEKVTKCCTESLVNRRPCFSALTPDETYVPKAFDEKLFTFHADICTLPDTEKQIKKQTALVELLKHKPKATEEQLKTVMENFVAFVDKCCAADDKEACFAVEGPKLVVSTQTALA
Structure (SMILES),test,system,conditions,how to read,quantity,result
CC1=[N+]2N=C(c3ccccc3)[O][Pd-2]2([Cl])[O+]=C2Oc3ccccc3C=C21 (stereo not drawn),fluorescence quenching,,concentration not given,,number of binding sites,1.61
O=C([O-])CN(CCN(CC(=O)[O-])CC(=O)NCCc1c[nH]c2ccc(O)cc12)CCN(CC(=O)[O-])CC(=O)NCCc1c[nH]c2ccc(O)cc12.[Gd+3],binding,,"concentration not given, 1 h, 40 °C, no BSA, added: MPO, glucose oxidase, glucose",,T1 shortening,34%
C#CC(=O)Nc1ccc(-c2c([Si](C)(C)C)c3ccccc3c3c4ccccc4cc[n+]23)cc1,LC-MS,,"16 h, pH 7.4, 25 °C, covalent modification of Cys34",,conversion,53%
O=C(O[C@@H]1Cc2c(O)cc(O)cc2O[C@@H]1c1cc(O)c(O)c(O)c1)c1cc(O)c(O)c(O)c1,"binding, circular dichroism",,"200 µM, pH 7.4, at 280 nm, added: BSA 30 µM",,induced CD amplitude,~0.8 mdeg
CCCCCCCCCCCCCCCC(=O)Nc1ccccc1SSc1ccccc1NC(=O)CCCCCCCCCCCCCCC,"binding, fluorescence quenching",,308 K,,Gibbs free energy change,-3.22 kcal/mol
O=[N][Fe]1([N]=O)[S](CCO)[Fe]([N]=O)([N]=O)[S]1CCO,"binding, EPR spin quantitation",,1:2 stoichiometry assumed,,apparent equilibrium constant,77.4 M⁻¹
COC(=O)c1cnc(-c2cnccn2)cc1C(=O)OC.COC(=O)c1cnc(-c2cnccn2)cc1C(=O)OC.[Cl-].[Cl-].[Cl-].[Cl-].[Cu+2].[Cu+2],fluorescence quenching,,,,binding constant,6.03e+06 M⁻¹
CCCCCCCCCCCC(=O)Nc1ccccc1SSc1ccccc1NC(=O)CCCCCCCCCCC,"binding, fluorescence quenching",,308 K,,Gibbs free energy change,-7.02 kcal/mol
CN(C)c1ccc(/N=N/c2ccc(S(=O)(=O)O)cc2)cc1,,,concentration not given,,number of specific binding sites,3
O=C([O-])CN1CCN(CC(=O)[O-])CCN(C(CCC(=O)NC(Cc2c[nH]c3ccc(O)cc23)C(=O)NCCc2c[nH]c3ccc(O)cc23)C(=O)O)CCN(CC(=O)[O-])CC1.[Gd+3] (stereo not drawn),,BSA,,"baseline: MPO-Gd, after activation",protein binding,~1.5 fold
CC(=O)[O-].O.O.O.O.[Mn+2].[O-]c1ccc(Br)cc1C=NCCN1CCOCC1,UV absorption titration,,"concentration not given, pH 7.2, 25 °C",,hyperchromism,47.9%
C#CC(=O)Nc1ccc(-c2c([Si](C)(C)C)c3ccccc3c3ccc4ccccc4[n+]23)cc1,LC-MS,,"16 h, pH 7.4, 25 °C, covalent modification of Cys34",,conversion,63%
Cc1ccc(C(C)C)cc1.[Cl-].[Cl][Ru+].[Ru+].c1ccc(-c2cn(CCCCOc3ccccc3-c3nc4ccccc4s3)nn2)nc1,Scatchard plot,,concentration not given,,number of binding sites,0.8
CN(C)C(=S)N(C)N=Cc1ccccc1SSc1ccccc1C=NN(C)C(=S)N(C)C,"adduct formation, optical absorption spectra",,added: BSA 40 µM,,reaction completion time,≤ 0.5 h
Cc1ccc2ccc3ccc(C)nc3c2n1.Cc1ccc2ccc3ccc(C)nc3c2n1.O.[Cl-].[Cl-].[Cl-].[Yb+3],fluorescence quenching,,298 K,,ΔG°,-7.758 ± 0.012 kcal/mol
C#CC(=O)Nc1ccc(-c2c([Si](C)(C)C)c3ccccc3c3cc(-c4ccccc4)c4ccccc4[n+]23)cc1,LC-MS,,"16 h, pH 7.4, 25 °C, covalent modification of Cys34",,conversion,28%
CCCCCCCCCCCCCC(=O)Nc1ccccc1SSc1ccccc1NC(=O)CCCCCCCCCCCCC,"binding, van't Hoff",,"concentration not given, 298-313 K",,entropy change,-174 J/mol/K
Oc1ccc2c(c1)[O][Pt-2]1([Cl])[N+](=C2)c2ccccc2[NH+]1c1ccccc1 (stereo not drawn),binding to BSA,,,,binding free energy,-7.89 kcal/mol
Cc1ccc(C(C)C)cc1.O=C([N-]c1nc2ccccc2[nH]1)c1cnccn1.[Cl-].[Ru+2],tryptophan fluorescence quenching,,concentration not given,,number of binding sites,0.83
CCN(CC)c1ccc2c(c1)[O][Pt-2]1([Cl])[N+](=C2)c2ccccc2[NH+]1c1ccccc1 (stereo not drawn),binding to BSA,,,,binding free energy,-9.08 kcal/mol
CCNc1cc2c(cc1C)C1(c3cc(C)c(NCC)cc3O2)c2ccccc2C(=O)N1N=Cc1c[c-]c(-c2ccccn2)cc1.Cc1c(C)c(-c2ccc(-c3ccccc3)cc2)[c-](C)c1C.[Cl-].[Ir+3],fluorescence quenching,bovine serum albumin,"concentration not given, 298 K",,number of binding sites,0.885

# For quick reference, copied from above:
Structure (SMILES),test,system,conditions,how to read,quantity,result
Cc1ccc(C(C)C)cc1.[Cl-].[Cl][Ru+].[Ru+].c1ccc(-c2cn(CCCCOc3ccccc3-c3nc4ccccc4s3)nn2)nc1,Scatchard plot,,concentration not given,,number of binding sites,0.8
CC1=[N+]2N=C(c3ccccc3)[O][Pd-2]2([Cl])[O+]=C2Oc3ccccc3C=C21 (stereo not drawn),fluorescence quenching,,concentration not given,,number of binding sites,1.61
CC(=O)[O-].O.O.O.O.[Mn+2].[O-]c1ccc(Br)cc1C=NCCN1CCOCC1,UV absorption titration,,"concentration not given, pH 7.2, 25 °C",,hyperchromism,47.9%
